Published values pooled from the literature.
A part holds a random share of what one study measured.

Study 1 — method: RNA Bind-n-Seq; molecule type: RNA; matrix: in vitro; concentration: not given; baseline: input RNA pool; reading: higher = stronger binding
Target: RING finger protein unkempt homolog, zinc fingers 1-6, GST-SBP tag (UNK, Homo sapiens, UniProt Q9C0B0, residues 30-357)
Setting: RNA with constant flanks, human and mouse sites, ends assumed
All sequences stand within: GGGAGUUCUACAGUCCGACGAUC … CAACAGAGGAUUGAGCAUCA
Target sequence (chain): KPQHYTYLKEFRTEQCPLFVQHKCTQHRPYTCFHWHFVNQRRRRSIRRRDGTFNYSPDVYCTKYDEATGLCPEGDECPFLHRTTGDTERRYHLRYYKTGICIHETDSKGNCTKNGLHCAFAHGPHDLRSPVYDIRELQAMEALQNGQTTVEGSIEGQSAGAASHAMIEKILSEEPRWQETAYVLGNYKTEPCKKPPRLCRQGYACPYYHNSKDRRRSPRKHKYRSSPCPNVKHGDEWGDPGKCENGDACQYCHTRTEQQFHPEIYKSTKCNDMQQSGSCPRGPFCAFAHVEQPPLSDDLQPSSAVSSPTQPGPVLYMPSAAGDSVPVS
Sequence | bound/input enrichment
UUUUUUUUUUUUUUUCUUUAAGAAAACUUCAGUUUAACAGUUUCUGCAAUACAAGCUUGUGAUUUAUGCUUACUCUAAGUGGAAAUCAGGAUUGUUAUGAAGACUUAAGGCCCAGUAUUU | 1.92 ratio
AAUCCACCUUACAGAGAGGAAGACAUACCAGCUCCCCUAAAUUUGUAUGGCAAAACAAAAUUAGAUGGAGAAAAGGCUGUCCUGGAGAACAAUCUAGGAGCUGCUGUUUUGAGGAUUCCU | 0.236 ratio
AGCUUCUACCGAACCAGAACCUUGCAGGCACUGAGUAAUGAGAAGAAAGCCAAGAAGGUACGUUUCUACCGCAAUGGGGACCGCUACUUCAAGGGGAUUGUGUACGCUGUGUCCUCUGAC | 0.123 ratio
AACAACUGGAAGAAUUUUUAGCUAAUAUUGGAACAAGCGUUCAGAAUGUUCGCAGGGAAAUGGACAGUGAUAUAGAGACCAUGCAACAGACAAUAGAGGAUUUGGAAGUAGCCAGUGAUC | 3.12 ratio
UUCUUGCCCAUGGAAUCUCCAGGGGUGGAAAUAGGGGAUGUGGCCACUGGUGGGCCUUGCUUAGUCCCUGCCUUGUUGUCUUAUGGUCUCCACUUGCUUUUCUGUCUUGUCUUUUUCUUU | 0.156 ratio
GUUGUGCAGUAGAGUUCAGACUUCUCAUCCAAUCUUAUAUUGUAGGCAUUUCUCAAGUGUUUUAGAUAUUAAUAACUAACAUUGGGAUUUUACUUUGCCAGCCCCAGCCUUCAGAACUCC | 1.15 ratio
GGAAAUUCAGGUAACUUGAAAAGCUCAGACAGAAAUCCUCCACUCAGUCCUCAGUCCUCUAUAGAUAGUGAGUUAAGUGCUUCAGAAUUAGAUGAAGAUUCAAUUGGAUCCAAUUAUAAG | 4.05 ratio
UUUUUACUUGGAAAUAACUGCACAUUUAUAUAUAGGAUAUUGGACUCUGCUUAGCAUUUUCAAGCCACAUAGCAUGACUGUUUUUUGAAUAGGUUGGAAUUGAAAAAACAAUUAUCAAAC | 6.95 ratio
GCAAAGGGAAGCGAGACUCCUGGAGCAACCCCAGGCUCAAAAAUAUGGGAUCCUACACCUAGCCACACACCAGCGGGAGCUGCUACUCCUGGACGAGGUGAUACACCAGGCCAUGCGACA | 0.0948 ratio
GGUGGUAAUUUUAAGGCCUAAAGAAAGCUGGGGUUAAUCCUGAAGCUAAAAGUAAAUGUUUCUUGAAUUGAUUUUGUUCUGUGGUACAAAUAACAUCUAUGAAUAUCAUAUCUGUAUAUA | 0.31 ratio
GUCAACCGUGUUACCAUACUGUGUGACAAAUUUAGUGGCCAUCCCAAAGGGUUUGCGUAUAUAGAGUUCUCAGACAAAGAGUCAGUGAGGACUUCCUUGGCCUUAGAUGAGUCCCUAUUU | 0.518 ratio

Study 2 — method: RNA Bind-n-Seq; molecule type: RNA; matrix: in vitro; concentration: 365 nM; baseline: no-protein control; reading: higher = stronger binding
Target: RNA binding protein fox-1 homolog 2, RRM domain, GST-SBP tag (RBFOX2, Homo sapiens, UniProt O43251-10, residues 100-194)
Setting: natural RNA segment, single round, ends assumed
All sequences stand within: GGGAGUUCUACAGUCCGACGAUC … UGGAAUUCUCGGGUGCCAA
Target sequence (chain): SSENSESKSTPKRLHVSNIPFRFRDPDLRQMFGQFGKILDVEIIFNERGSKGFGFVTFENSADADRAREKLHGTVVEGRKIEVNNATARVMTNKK
Sequence | RBNS enrichment (R)
UUGUAUCUUUUCUCAGGUUAUGCCUUAUGUAACUGGAUAAUUUUAUUAUAAAAAUUUCUCUGAAACUCUCAUGUCUGUUUUGUGGUAUGGGCAGGAGUAGACAGAACUGG | 1.05
AAUGAAUGCGCAGCGUAUGACUGUUGGUGAUAAGUGUAUCUGUGUGAGUGUGUGCAACUACUUGUGUGAGGGCAUGGUAGCUAACGUGUGUAUGAGAUCCUAUAUACCAG | 16.1
AAUGCUAAGUCUGGCAUGGUAGUCAACACCUAUAAUCUCUGCACUCAGAGGCUGAGGAAGAAAGAUCACUGAGUCACGGCCAGCCUGGGCUACAUAGCCCCGCCCUGUCU | 0.306
CUUGCUUGAAAUCUUGCUGAAAUGUUCUCAUUUCCUGUUUGCUGUAUGGGCUCGGGUGGGAUGUUUGUUGGCUCUGUUGUGUUUAUUCACCAAUUUGUACAUUAUUUGUU | 5.71
AAUAUUAGUUAUUCUAAGGAGAAAAAAAUGCUUCUGCAAGAUUUUCAUAAUUCAGGGGCUGUGGAUAGGAUUGUUCCUCUGUUUCCCUAAUCAUUCAUCUGUUCAUGUCU | 1.93
UCUGAAAACUAAGCCCUCAAUGAACGACUUAAUUAACUCACUGCAUUAGUCUCCAUAAUUGGUCUCGCUGGACACGUGCACAGCUGUGGCUCUCAGCAGCUUCCCUGCAG | 0.435
CACCGCACUAUUCUUGCCAUAGAGAGAGCCCAGGAGCCAACGCUGAAUCAGGUGCCCGGAGUCUUUGGAGCUCUGAAACUCUCGGCUAUGCAAGACCCCGGGUCCUUGCA | 2.08
GUUUAGUUUUGUGUGUAUCUUACAGUAUGCAUGUUCUGAAAUUAUUUGUGAUCCUGAUAUGUCACAUAUAAUAGCUUUGUUACCUGGAGUAUUUGAUUAACCUAAACAGU | 2.39
GCAUCUCAGCAUCUGGGUGGAAGCUGCCUAUAUUUCUUCCCAGUUUAACUGGGGACCAUCUGUGAAAUUAAUUUUCCAUCCAGACAGCUGCUGUGAGCAAAUGAACAUAA | 0.407
GAGGACUGGAGAUGAAUGGACAAUAUGAUCAAAGACUCAUUUUUAGGCCUUGAAGAGGCCGAGCUUUCUCCCCCCAAUUGGUGGAGGACAGUCCAGAGAUGAGCAGAAAU | 0.843
GCCACAUUUUCUUAAUCCAGUCUAUCAUUGUUGGACAUUUGGGUUGGUUCCAAGUCUUUGCUAUUGUGAAUAAUGCCGCAAUAAACAUACGUGUGCAUGUGUCUUUAUAG | 0.706
CGCUUGGGUGCGUGGGAGGGCGCACAUCAGGGCAGAGGCCAAGUUCCAGGUGUCUGUGUUCCCAGGAACCAAAUGGGGAGUCUGGGGCCCGUUUUCCCCCCAGGGGGUGU | 0.718

Study 3 — method: protein-binding microarray; molecule type: double-stranded DNA, one strand shown; matrix: in vitro; concentration: 2540 nM top; setting: 60-bp whole probe; added: salmon DNA 0.4 mg/ml; baseline: random background probes; reading: higher = stronger binding; all sequences stand within: GCCTAGCAC … GTCTTGATTCGCTTGACGCTGCTG
Target: Interferon regulatory factor 3, full length, phosphomimetic (IRF3, Homo sapiens, UniProt Q14653, residues 1-427, S386D/S396D/S398D/S402D/T404D/S405D)
Residues (chain): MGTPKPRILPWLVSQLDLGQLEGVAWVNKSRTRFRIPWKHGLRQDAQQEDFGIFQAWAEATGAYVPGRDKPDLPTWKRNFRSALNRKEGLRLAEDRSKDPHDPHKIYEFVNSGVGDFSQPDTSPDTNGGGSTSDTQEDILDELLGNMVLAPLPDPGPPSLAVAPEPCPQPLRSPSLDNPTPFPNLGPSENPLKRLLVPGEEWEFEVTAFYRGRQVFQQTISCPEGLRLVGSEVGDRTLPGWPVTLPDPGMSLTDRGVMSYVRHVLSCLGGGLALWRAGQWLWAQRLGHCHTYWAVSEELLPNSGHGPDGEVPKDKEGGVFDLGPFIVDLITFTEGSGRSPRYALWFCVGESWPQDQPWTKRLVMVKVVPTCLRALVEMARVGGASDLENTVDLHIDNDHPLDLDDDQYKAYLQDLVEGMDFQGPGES
Sequence | fitted relative affinity [z-score]
TTAGGACTGGCACTGGGTTAGTGCTAG | -0.886
GGTCTTCTGGGCTGTTTAGTCGTGCTA | -0.0112
GACGATAGCAGTTTCGAGACGTGCTAG | 1.63
TATCAGTAGGTAAGGAAAAGGTGCTAG | 0.107
GACGATTTCAGTTCCGAGCCGTGCTAG | 2.77
TCTAATTTACTTTGGTTGGCGTGCTAG | -0.129
CCCAGACTTGATTTTGGTCTGTGCTAG | -0.0476
CTTTTTAGAAATTTCTTTCTGTGCTAG | 4.29
TTAGGTATCGACTTTCGGTTTGTGCTA | 3.03
TCATCTTTCCCTGCCCCACTGTGCTAG | 1.67
TTAGGTAGCGGACTGGGTTAGTGCTAG | -0.502
TTAGGTTTCCTACTGCTATAGTGCTAG | 5.26
CACTCTCTGCTTGTATCTGGGTGCTAG | 1.55
GACGGTATCGGGTTTCGGGAAGTGCTA | 3.23
TTAGATATCGCGTTTCGATTAGTGCTA | 1.52
TCAGTAATCGAAATCTTACTGTGCTAG | 0.102
GACGATATTGGGACTGGAGACGTGCTA | -0.306
TTAGATCTCAGTCTCGATTTGTGCTAG | 0.86
GACGGACTGGGGACCGGGGACGTGCTA | -0.853
TCATGCTTCGAGATCTCACTGTGCTAG | -0.362
ATAGGTCTCGGTTTCGGTTAGTGCTAG | 5.74
GGCAGCCTCTGCATTCCCTCAGTGCTA | -1.26
GACGGTATCGGTATCCGGACGTGCTAG | 5.05
GACGGTCTCGGTATCGGCACGTGCTAG | 1.45
GACGGGCTCGGACTGGGGACGTGCTAG | -1.06

Study 4 — method: protein binding microarray; molecule type: double-stranded DNA, one strand shown; matrix: in vitro; concentration: not given; baseline: not given; reading: higher = stronger binding
Target: Histone acetyltransferase KAT6A, winged helix 2, GST fusion (KAT6A, Homo sapiens, UniProt Q92794, residues 85-181)
Setting: 8-mer, flanks averaged, mean of 2 arrays, mostly near background
Construct (chain): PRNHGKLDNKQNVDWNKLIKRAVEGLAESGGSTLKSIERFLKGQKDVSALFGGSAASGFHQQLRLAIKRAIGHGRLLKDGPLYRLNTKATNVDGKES
Sequence | E-score
AGAGGAGC | 0.00681
ATTTGAAA | 0.099
CGGGCCGC | 0.222
GCCTAACA | -0.0202
AGCGTTTC | -0.0862
GCTCCAGC | 0.185
GCACACAA | 0.0572
AGTCCACA | 0.0416
ACGAGCAC | -0.0222
CCGGCAAC | 0.0131
AAAGGTAG | -0.108
AGAAATTA | 0.162
CTCTTGGC | -0.0728
CCACCAGC | 0.102
CTTAGACA | -0.0987
CGATCGAA | 0.0518
AACATGAG | -0.102
AGGTTTAT | 0.0248
ACTGTTTA | -0.024
AGCGCCAT | -0.0568
ATGCTGAG | 0.0192
ATGTGTAC | -0.096
GCCAAAGA | 0.0342
AACCCAAA | 0.16
AAAGATGG | -0.134
